Results from different studies.
A part holds a random share of what one study measured. Changes are numbered by the printed parent chain.

Sample 1
Target: Histone acetyltransferase KAT6A, winged helix 2, GST fusion (KAT6A, Homo sapiens, UniProt Q92794, residues 85-181)
Method: protein binding microarray
Form: double-stranded DNA, one strand shown
Sample: in vitro
Tested at: not given
Notes: 8-mer, flanks averaged, mean of 2 arrays, mostly near background
Baseline: not given
Reading: higher = stronger binding
Quantity: E-score
Target sequence (chain): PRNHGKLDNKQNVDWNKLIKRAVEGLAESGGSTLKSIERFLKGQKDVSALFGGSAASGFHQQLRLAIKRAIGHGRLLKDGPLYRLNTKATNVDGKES
AATCACGT: -0.0745
CTCAAGAC: -0.016
AACGGTTC: -0.113
CTGCGGAC: 0.178
TGCAATAA: 0.00818
GACGCGTC: -0.029
AGTGATCG: -0.126
GCTAAGTA: -0.0566
ACGTGCAT: -0.21
AGACCACG: -0.201
ATTTGCGA: 0.1
ACGATGAG: 0.0192
CGTATTTC: -0.0522
AGCAAAAT: 0.217
ACGCCGTA: -0.128
AAAAAGCA: 0.106
AAACAAGG: -0.0451
TCCAAGCA: -0.0547
ACCGGCGG: 0.146
GGGTCGAC: 0.0265
GTTGGGTA: -0.0365
GATGGATA: -0.0116
GTCGTCAC: -0.0512
GGACGTCC: -0.126
CCTGGCCA: -0.0698

Sample 2
Target: ABI1, truncated, D143A, DHFR fusion (Arabidopsis thaliana)
Method: DHFR PCA, deep sequencing
Sample: yeast
Notes: methotrexate growth selection, single substitutions
With: (+)-ABA 0.11 µM
Baseline: wild-type fitted maximum
Reading: higher = stronger binding
Quantity: relative binding score
Starting sequence: PYL1, truncated, DHFR fusion (Arabidopsis thaliana); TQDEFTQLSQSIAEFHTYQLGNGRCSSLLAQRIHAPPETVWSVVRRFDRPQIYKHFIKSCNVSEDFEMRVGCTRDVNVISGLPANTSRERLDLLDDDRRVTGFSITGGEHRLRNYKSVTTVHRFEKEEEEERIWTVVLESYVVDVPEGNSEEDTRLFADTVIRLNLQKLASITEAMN
T86A: 9.01%
V137P: -4.24%
K58M: -5.67%
Q31A: 0.353%
D48M: -1.76%
H110D: 38.7%
V118E: -2.26%
A175I: 2.7%
I57G: -1.59%

Sample 3
Target: DBP, bZIP domain (human)
Method: DHFR protein complementation
Sample: yeast
Notes: single substitutions, most at no-binding floor
Baseline: wild-type JUN-FOS pair
Reading: higher = stronger binding
Quantity: binding fitness
Starting sequence: JUN, bZIP domain (human); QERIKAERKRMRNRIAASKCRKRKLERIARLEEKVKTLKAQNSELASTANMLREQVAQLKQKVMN; partner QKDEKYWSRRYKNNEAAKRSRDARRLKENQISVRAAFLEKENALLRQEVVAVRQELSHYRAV
T37K: -1.37 natural log
T37C: -1.51 natural log
L45I: -1.35 natural log
T48K: -1.29 natural log
N42E: -1.49 natural log
L38W: -1.36 natural log
V56P: -1.44 natural log
L38D: -1.46 natural log
A49P: -1.32 natural log
E44T: -1.32 natural log
A57E: -1.37 natural log
T48A: -1.27 natural log
E44W: -1.43 natural log
E54R: -1.41 natural log

Sample 4
Target: RING finger protein unkempt homolog, zinc fingers 1-6, SBP tag (UNK, Homo sapiens, UniProt Q9C0B0, residues 30-357)
UniProt Q9C0B0, sequence (30-357, looked up): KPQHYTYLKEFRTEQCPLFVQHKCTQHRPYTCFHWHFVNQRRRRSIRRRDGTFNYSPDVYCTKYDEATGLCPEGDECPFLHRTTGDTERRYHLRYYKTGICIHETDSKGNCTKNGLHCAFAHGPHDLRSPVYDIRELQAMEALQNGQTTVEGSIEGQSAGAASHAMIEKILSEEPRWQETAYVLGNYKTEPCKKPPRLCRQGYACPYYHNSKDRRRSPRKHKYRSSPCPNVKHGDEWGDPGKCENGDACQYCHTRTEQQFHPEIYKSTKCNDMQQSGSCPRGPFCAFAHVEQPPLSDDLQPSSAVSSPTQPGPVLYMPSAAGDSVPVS
Method: RNA Bind-n-Seq
Form: RNA
Sample: in vitro
Tested at: 100 nM
Notes: RNA with constant flanks, vertebrate orthologous sites, ends assumed
Baseline: input RNA pool
Reading: higher = stronger binding
Quantity: bound/input enrichment
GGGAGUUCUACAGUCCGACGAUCCUCCCUACUCCUGGGUGUGUGACUGAGGGGGAAGCAUCCACCAGCGCUGCAAGGGGUCCCUAGUAUUUUUUGCUGCCUCGGAGUCCCAGAAGCCUUCAAGCAGAAGUGGCAGUAGUUGGUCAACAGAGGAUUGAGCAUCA: 1.2 ratio
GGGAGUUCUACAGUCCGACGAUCGCAAAUCCAAUCACUGUGAUAUUUAAAAUAUGCACAGUCCUAAUUCUUUCUUGAUGGUCCUAGUAUUUUUCUAGCUGUAUCUUUAUAUCUCAUACUGUUAUUUAUCAGUUUUGUUCCCCUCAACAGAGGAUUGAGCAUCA: 0.962 ratio
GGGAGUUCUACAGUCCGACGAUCUAAUUCAAUGGUUGAGGGUUCAGAACUCAAAAAGGUUCGCUCCAACUCUAGAAUUUAUCAUAGGUACUUUUUACUGGAUGCCGACAUGCAGAGCCUAAGGUGGGAGCCAUCUAAGAAGGACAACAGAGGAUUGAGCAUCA: 0.248 ratio
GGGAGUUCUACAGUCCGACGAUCAACUAAGAACUCUUGCAGUCUUAGAUGUUAUAAAAUAUAUAUCUGAAUUGUAAGAGUUGUUAGCACAGGUUUCUUUUUUUUUUUUUUAAGUACUUGUUUUGGGUACAAGGCAUUUCUGAACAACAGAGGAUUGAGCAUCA: 0.237 ratio
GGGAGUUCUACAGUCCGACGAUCAGGGAGAAGAGCUCACAAACUCAAAGGGAAACUAUUAAAGAUUUCCUAAUAGUUAAAAGCUAGGAAAGAUUAGGACAACUUUACAAAUGAGCAUUAAAAAGAAAAGGGCUACGGAAACCACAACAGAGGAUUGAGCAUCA: 0.895 ratio
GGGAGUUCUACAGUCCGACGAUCUUGGGACCAGCUCUCUGAAUAGAAAUAGUAGUAAAAAAACCAAGCAAAAUGAUAUUUGUAUAGAAAAAACAGAAGCUAAAUCAUGUAAAGUAAAUGCUGCCAGUGUUCCAGGCCCUAAAGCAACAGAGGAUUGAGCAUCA: 1.78 ratio
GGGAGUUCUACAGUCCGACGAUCUCAUAAUCACUCUAAUCGUAAUCUGACAAGUGUAACAUUGUGUAGCCUUUUUGUAUAAAUUAGACAAAUAGAAAUGGUCCAAUUAGUUUCCUUUUUAAUAUGCUUAAAAUAAGCAGGUGGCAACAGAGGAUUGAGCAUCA: 2.99 ratio
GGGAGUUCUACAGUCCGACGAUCUUUUUAAAAGUUUUUUUAAUUUAAUUUUUCCUUUUGGGGGUACAAGUUUGCUCUACCAAAUAGUGAUCGUAACAAAUUGAUCUGUUUUGGAUGUUGCUAUAGUGACAUGCAGUUAUAUAUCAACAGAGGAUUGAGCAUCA: 0.696 ratio
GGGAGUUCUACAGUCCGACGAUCAUCCCAGUUUGUAUGCACAUUAUUCACAUUCCUAUCUGUUGUGUUUGCAGAAAUGACAUUUUACCCUUUUCUAAGGGUUACUUUUUGAUUUUCAUAUUAUUUGGUUGCAUGAAGUUGCCCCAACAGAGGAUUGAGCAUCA: 0.321 ratio
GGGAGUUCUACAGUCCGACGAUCGAAGAUGGUGGUUGUACAUUAUUCAUUUAAAGAAUAUAAAAAUUGGUUUUGUUUUGAAGCUAGGUAUUAAUUGGAAUAACUAUUAUACCCGAGAAUGGGGCAGCUGUGCCCUUUCUUUGACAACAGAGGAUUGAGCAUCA: 0.549 ratio
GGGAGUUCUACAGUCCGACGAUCUUCACCACUCCUGGGUGCGUGAUUGAGGGUGAAGCAUCCACCAGCACUGCAAGGGGUCCAUAGUAUUUUUUUUUUUUUUUUUUUUUACACUGUCAGAAUUUCUUUCUUAGAUUUAAUUGACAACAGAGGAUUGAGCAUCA: 9.82 ratio

Sample 5
Target: CCND2, cyclin fold, Cln2 fusion (human)
Method: yeast growth competition, sequencing
Sample: yeast
Notes: weak parent motif
Baseline: not given
Reading: higher = stronger binding
Quantity: normalised enrichment score
Starting sequence: PKN2 docking peptide (human); VSAVQKLDFSDTM
V4D: 0.141
S2K: 0.515
M13N: 0.638
F9W: -0.0236
L7F: 0.545
F9S: 0.198
M13Q: 0.521
S2A: 0.691
A3D: -0.537
T12Y: 0.826
V4N: 0.105
T12H: 0.421
A3W: 0.371

Sample 6
Target: PABPC1L2, full length, GST fusion (mouse, UniProt A0ABA7IW68)
Method: RNAcompete
Form: RNA
Sample: in vitro
Tested at: 20 nM
Notes: 7-mer, probes averaged, single round
Baseline: mean of 7-mers
Reading: higher = stronger binding
Quantity: 7-mer Z-score
Target sequence (chain): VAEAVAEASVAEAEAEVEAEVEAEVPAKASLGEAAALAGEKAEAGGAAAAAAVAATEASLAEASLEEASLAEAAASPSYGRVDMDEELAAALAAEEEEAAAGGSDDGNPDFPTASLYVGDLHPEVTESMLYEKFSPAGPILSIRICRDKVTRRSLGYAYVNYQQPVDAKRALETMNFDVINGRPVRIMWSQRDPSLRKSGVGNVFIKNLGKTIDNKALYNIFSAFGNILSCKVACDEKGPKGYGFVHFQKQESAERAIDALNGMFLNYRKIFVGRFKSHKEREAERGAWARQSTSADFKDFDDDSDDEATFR
UCGUGAC: -0.0591
GUCUCAG: -0.277
UUAGCGU: -0.157
GAAGGUG: 0.0497
AUUACAC: -0.166
AGAGCCG: -0.402
CUAGUGC: -0.237
CGCACUC: -0.179
CACCGAC: -0.0989
AAGGGUA: 0.365
UUCCGCG: -0.411
GCUUUGU: -0.383
ACGUUGU: -0.3
GCGACUA: 0.00254
UGCACCU: -0.277
UUUAAGU: -0.0319
GACUUCG: -0.219

Sample 7
Target: RNA binding protein fox-1 homolog 2, RRM domain, GST-SBP tag (RBFOX2, Homo sapiens, UniProt O43251-10, residues 100-194)
Method: RNA Bind-n-Seq
Form: RNA
Sample: in vitro
Tested at: 365 nM
Notes: natural RNA segment, single round, ends assumed
Baseline: no-protein control
Reading: higher = stronger binding
Quantity: RBNS enrichment (R)
Residues (chain): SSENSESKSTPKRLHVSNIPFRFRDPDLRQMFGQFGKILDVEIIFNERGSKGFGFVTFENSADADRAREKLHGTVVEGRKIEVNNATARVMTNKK
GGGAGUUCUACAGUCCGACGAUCCCCCAGAGGAUCUGGCUCUAGGUUGGGAUCAAUCCUGAAUUUCGUUAUGUGUUAAUUUACUUUUAUUAAAAAAGUAUAGUAUAUAUAAUACAAAACAAUAACCCUUCUGGUGGAAUUCUCGGGUGCCAA: 0.621
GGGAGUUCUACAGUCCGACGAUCCUGUCACUGGAGAAUAGGAUGUCAGAGCUGGGCAGGACUGGUACCCAUCAUUUGCAGUUUGCAUGUGGGGAAACCAAAGCCCUAAGAAACAACAGUUCCUGGCCCAAAAAUGGAAUUCUCGGGUGCCAA: 1.37
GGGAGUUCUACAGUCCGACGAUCUGUCAUCUUUAGAAAGUGAGAUAACCAAGGAAAUAAUUGAAGGAGUAUAGGGAGAUGGAUUAAGUUGAUAAUGACAUUUAGGGCAACUUAAGACCUUUGAUCCCAGGUUCUGGAAUUCUCGGGUGCCAA: 0.897
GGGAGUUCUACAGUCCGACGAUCAUUCCCUCCACAUGCUGCACGCGCAUCUCGCCCCCAGGGGCACUGCCUGGAAGAUUCAGGAGCCUGGGCGGCCUUCGCUUACUCUCACCUGCUUCUGAGUUGCCCAGGAGUGGAAUUCUCGGGUGCCAA: 3.39
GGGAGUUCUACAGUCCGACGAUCAUUUCUUCUGGAGGGAAGCACCAUGAAUUAAAGGUGCCAGAGCUCCAUGCAUGGAAAAGUGGCCUGUUGGUUCAACGUGGUUUCCUUGUACUUGAUCCUCCUGAAAUGAGUGGAAUUCUCGGGUGCCAA: 1.88
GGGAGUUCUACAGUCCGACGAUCUCAUUUGGAAUUUAAUGCUUGACUUCUUUGUUCAUUUUGGAUCUAAACUUCUCUUUUCUUCCUUCCCCAUUCACAUCUAUUAGAAGACUGCAUCACCAUUUCUUUGGCCCUGGAAUUCUCGGGUGCCAA: 7.12
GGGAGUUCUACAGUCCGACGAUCGUCAUUGCCAUCACCAUCGCCAGCAUUGAGGAAGAGCCUCUGAAGUGUCAGGACUUUGCAGUGUAGCUCAUGCAAAGAGAGUGUUCUAUAAAAAUCUUGACAGCUGAACUUGGAAUUCUCGGGUGCCAA: 0.577
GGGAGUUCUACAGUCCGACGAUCUUUUGCUCCAGCCACUUUUCUUGUACAACCACAUGGAUGGAUUAGAUGUCCUCAGGUCUUUUCCAUCUUCAGUUUCUAUGACUGUGGAAUAAAUGUUCAGAUAGAAACUUUGGAAUUCUCGGGUGCCAA: 0.485
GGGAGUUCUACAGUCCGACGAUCUGAAGAGAGGUGAAAGGCACACUUUCAACCUGUCAUUCAGCGUUUCUUUUGAGCUUAGUCAGCUGUACCUUUUCAAUUAGUUCUUUUUCAACCAAUGUGUCACUAAAAGUUGGAAUUCUCGGGUGCCAA: 0.349
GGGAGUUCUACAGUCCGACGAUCUUCAGGUAGCAUCUGAAAUUUUAAUGAAUGUAUAAUUGGCAUAUCAUGGAAAAUUAACCAGAAAGUAUCAGUUCUUAAAAGUUAUGCCUAGAAAUUAUGUAAAGCUAAACUGGAAUUCUCGGGUGCCAA: 5.84
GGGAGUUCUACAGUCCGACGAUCAAAGAUGGGGGGAAGGGAAAUAUGAGCCUUUGUUGCUUUCAAAACGAGAACAGUUUGUACAAGUUUUUUUUUUUGAAUAAAACUUUUCCAAUGAAAUGUUAUAGGUGUGUUGGAAUUCUCGGGUGCCAA: 1.02
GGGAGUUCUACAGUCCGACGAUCUGAUAUUGCCAUGCAUGGUCAUUCAUACUUCUAAUACCAGCACCUAUAAGGCUGAGGCAGAAGGUUCCAGAAUUCAAGGACACUCAGGCCUACAUAUAUAGCAAGACUGUUGGAAUUCUCGGGUGCCAA: 0.508
